Published values from different studies.
Compare with care: the assays were run in different laboratories.
Organism: Staphylococcus aureus

CC[C@H]1OC(=O)[C@H](C)[C@@H](OC(=O)Cc2c(F)cccc2F)[C@H](C)[C@@H](O[C@@H]2O[C@H](C)C[C@H](N(C)C)[C@H]2O)[C@](C)(OC)C[C@@H](C)C(=O)[C@H](C)[C@@H](O)[C@]1(C)O
MIC (BAA-977): 2 µg/mL

O=CCNCCOn1c(=O)n(OCCNCCO)c(=O)n(OCCNCCOn2c(=O)n(OCCNCCO)c(=O)n(OCCNCCO)c2=O)c1=O
MIC (microbial growth, broth dilution): 2 µg/mL

CNC(C)C1CCC(N)C(OC2C(N)CC(N)C(OC3OCC(C)(O)C(NC)C3O)C2O)O1 (stereo not drawn)
MIC (microbial growth, broth dilution; 43300): 32 µM

CCCCCCCC[C@H](NC(=O)[C@@H]1CSC([C@@H](N)[C@@H](C)CC)=N1)C(=O)N[C@H](CCC(=O)O)C(=O)N[C@H](C(=O)N[C@H]1CCCCNC(=O)[C@H](CC(N)=O)NC(=O)[C@@H](CC(=O)O)NC(=O)[C@H](Cc2c[nH]cn2)NC(=O)[C@@H](Cc2ccccc2)NC(=O)[C@H]([C@@H](C)CC)NC(=O)[C@@H](CCCN)NC1=O)[C@@H](C)CC
MIC (ATCC 29213; with: EDTA 0.3 mM): 16 µg/mL

COc1cc(C(=O)Nc2ccc(C(=O)O)cc2)ccc1NC(=O)c1ccc(NC(=O)[C@H](Cc2c[nH]nn2)NC(=O)c2ccc(NC(=O)/C(C)=C/c3ccc(O)cc3)cc2)cc1
MIC (broth microdilution; ciprofloxacin-resistant): 32 µg/mL

O=[N+]([O-])c1cc(Cl)c2cccnc2c1O
MIC (microbial growth, broth dilution; ATCC29213): 4 µg/mL

CC[C@H]1OC(=O)[C@H](C)[C@@H](OC(=O)c2ccc([N+](=O)[O-])cc2)[C@H](C)[C@@H](O[C@@H]2O[C@H](C)C[C@H](N(C)C)[C@H]2O)[C@](C)(OC)C[C@@H](C)C(=O)[C@H](C)[C@@H](O)[C@]1(C)O
MIC (DSM 20231 MSSA): > 64 µg/mL

CC(C)C[C@@H]1NC(=O)[C@@H](CC(C)C)NC(=O)[C@H](CCN)NC(=O)[C@@H](NC(=O)[C@H](CCN)NC(=O)[C@@H](N)[C@@H](C)O)CCNC(=O)[C@H]([C@@H](C)O)NC(=O)[C@H](CCN)NC(=O)[C@H](CCN)NC1=O
MIC (broth microdilution; MRSA USA300, cation-adjusted Mueller-Hinton broth; 20 to 24 h, 37 °C, 0.002% polysorbate 80): > 128 µg/mL

CC[C@H]1OC(=O)[C@H](C)[C@@H](OC(=O)Cc2ccc([N+](=O)[O-])cc2)[C@H](C)[C@@H](O[C@@H]2O[C@H](C)C[C@H](N(C)C)[C@H]2O)[C@](C)(OC)C[C@@H](C)C(=O)[C@H](C)[C@@H](O)[C@]1(C)O
MIC (BAA-977): 2 µg/mL

COc1cc(C(=O)O)ccc1NC(=O)c1ccc(NC(=O)c2ccc(NC(=O)[C@H](Cc3c[nH]nn3)NC(=O)c3ccc(NC(=O)/C(C)=C/c4ccc(O)cc4)cc3)cc2)cc1O
MIC (broth microdilution; ciprofloxacin-resistant): 32 µg/mL

C=C1CN(C(=N)N)CC2Nc3c(F)cc(Br)cc3C12CCNS(=O)(=O)c1ccc(Cl)cc1.O=C(O)C(F)(F)F (stereo not drawn)
MIC (NR-46414, vancomycin-resistant): 2 µg/mL

C#CCOc1ccc(CN[C@@]2(C)C[C@H](O[C@H]3[C@H](Oc4c5cc6cc4Oc4ccc(cc4Cl)[C@@H](O)[C@@H](NC(=O)[C@@H](CC(C)C)NC)C(=O)N[C@@H](CC(N)=O)C(=O)N[C@H]6C(=O)N[C@H]4C(=O)N[C@H](C(=O)N[C@H](C(=O)O)c6cc(O)cc(O)c6-c6cc4ccc6O)[C@H](O)c4ccc(c(Cl)c4)O5)O[C@H](CO)[C@@H](O)[C@@H]3O)O[C@@H](C)[C@H]2O)cc1OC
MIC (broth microdilution; MRSA USA300, cation-adjusted Mueller-Hinton broth; 20 to 24 h, 37 °C, 0.002% polysorbate 80): 2 µg/mL

CCCCCCn1cc[n+](CCCCCCCCOc2cc(OCCCCCCCC[n+]3ccn(CCCCCC)c3)cc(OCCCCCCCC[n+]3ccn(CCCCCC)c3)c2)c1.[Br-].[Br-].[Br-]
MIC (HA-MRSA ATCC 33591): 1 µM

CCCC(=O)Oc1c(C)c(OC)c2c(c1C)OC(=O)[C@@H](CC)[C@]2(O)/C=C/c1ccccc1 (racemic)
MIC (microbial growth, broth dilution; ATCC25923): 5000 µg/mL

CC[C@H]1OC(=O)[C@H](C)[C@@H](OC(=O)Cc2ccc(OC(F)(F)F)cc2)[C@H](C)[C@@H](O[C@@H]2O[C@H](C)C[C@H](N(C)C)[C@H]2O)[C@](C)(OC)C[C@@H](C)C(=O)[C@H](C)[C@@H](O)[C@]1(C)O
MIC (BAA-977): 16 µg/mL

CCCC/C=C/C(=O)N[C@@H](Cc1cc(F)cc(F)c1)C(=O)N[C@H]1COC(=O)[C@@H]2CCCN2C(=O)[C@H](C)NC(=O)[C@@H]2CCCCN2C(=O)[C@@H]2CCCN2C1=O
MIC (microbial growth, broth dilution): 0.39 µg/mL

CC[C@H]1OC(=O)[C@H](C)[C@@H](OC(=O)Cc2ccccc2[N+](=O)[O-])[C@H](C)[C@@H](O[C@@H]2O[C@H](C)C[C@H](N(C)C)[C@H]2O)[C@](C)(OC)C[C@@H](C)C(=O)[C@H](C)[C@@H](O)[C@]1(C)O
MIC (microbial growth; BAA976): 1 µg/mL

CCC(CC)c1cc(CCN2CCCN(C(=O)OC(C)(C)C)CC2)nc(-c2ccccn2)n1
MIC (microbial growth, broth dilution; ATCC29213): > 16 µg/mL

CC1C=CC=CC(C)C2C=CC3CC(C)(O)C(Cl)C(C)C3C2C(=O)C(Cl)(Cl)C(=O)C(C)C(=O)O1 (stereo not drawn)
MIC (MRSA clinical isolate; resistant: OXA): 0.1 µg/mL

CCCCCC[N+](C)(C)CCCCCCCCOc1cc(OCCCCCCCC[N+](C)(C)CCCCCC)cc(OCCCCCCCC[N+](C)(C)CCCCCC)c1.[Br-].[Br-].[Br-]
MIC (HA-MRSA ATCC 33591): 1 µM

C/C(=C\c1ccc(O)cc1)C(=O)Nc1ccc(C(=O)N[C@@H](Cc2c[nH]nn2)C(=O)Nc2ccc(C(=O)Nc3ccc(C(=O)Nc4ccc(C(=O)O)c(O)c4)c(O)c3)cc2)cc1
MIC (broth microdilution; ciprofloxacin-resistant): 2 µg/mL

CCCCCCCCn1cc[n+](CCCCCCCCCCOc2cc(OCCCCCCCCCC[n+]3ccn(CCCCCCCC)c3)cc(OCCCCCCCCCC[n+]3ccn(CCCCCCCC)c3)c2)c1.[Br-].[Br-].[Br-]
MIC (CA-MRSA USA300-0114): 4 µM

CC[C@H]1OC(=O)[C@H](C)[C@@H](OC(=O)Cc2cccc3ccccc23)[C@H](C)[C@@H](O[C@@H]2O[C@H](C)C[C@H](N(C)C)[C@H]2O)[C@](C)(OC)C[C@@H](C)C(=O)[C@H](C)[C@@H](O)[C@]1(C)O
MIC (ATCC 43300 MRSA): 32 µg/mL

CCCCCCCCCCCC[N+](C)(C)CCCCCCCCOc1cc(OCCCCCCCC[N+](C)(C)CCCCCCCCCCCC)cc(OCCCCCCCC[N+](C)(C)CCCCCCCCCCCC)c1.[Br-].[Br-].[Br-]
MIC (CA-MRSA USA300-0114): 8 µM

COc1c(C)c(OC(=O)c2ccc3ccccc3c2)c(C)c(O)c1C(=O)/C=C/c1ccccc1
MIC (microbial growth, broth dilution; ATCC25923): 5000 µg/mL

CCCCCC[N+](C)(C)CCCCCCCCCCOc1cc(OCCCCCCCCCC[N+](C)(C)CCCCCC)cc(OCCCCCCCCCC[N+](C)(C)CCCCCC)c1.[Br-].[Br-].[Br-]
MIC (HA-MRSA ATCC 33591): 2 µM

CC[C@@H](C)[C@@H](NC(=O)[C@H](CCCNC(=N)N)NC(=O)[C@H](CCC(N)=O)NC(=O)[C@@H](NC(=O)[C@H](NC(=O)[C@H](CCCNC(=N)N)NC(=O)[C@H](CCCCN)NC(=O)[C@H](Cc1ccccc1)NC(=O)CN)[C@H](C)CC)C(C)C)C(=O)N[C@@H](CCCCN)C(=O)N[C@@H](CC(=O)O)C(=O)N[C@@H](Cc1ccccc1)C(=O)N[C@H](CC(C)C)C(=O)N[C@@H](CCCNC(=N)N)C(=O)N[C@@H](CC(N)=O)C(=O)N[C@@H](CC(C)C)C(=O)N[C@H](C(N)=O)C(C)C
MIC (USA300 LAC): > 160 µM

CCCCCCCCn1cc[n+](CCCCCCCCOc2cc(OCCCCCCCC[n+]3ccn(CCCCCCCC)c3)cc(OCCCCCCCC[n+]3ccn(CCCCCCCC)c3)c2)c1.[Br-].[Br-].[Br-]
MIC (SH1000 MSSA): 1 µM

CC[C@H]1OC(=O)[C@H](C)[C@@H](OC(=O)CC2CCCCC2)[C@H](C)[C@@H](O[C@@H]2O[C@H](C)C[C@H](N(C)C)[C@H]2O)[C@](C)(OC)C[C@@H](C)C(=O)[C@H](C)[C@@H](O)[C@]1(C)O
MIC (ATCC 43300 MRSA): 256 µg/mL

CCCCCCCCCC[N+](C)(C)CCCCCCCCCCOc1cc(OCCCCCCCCCC[N+](C)(C)CCCCCCCCCC)cc(OCCCCCCCCCC[N+](C)(C)CCCCCCCCCC)c1.[Br-].[Br-].[Br-]
MIC (CA-MRSA USA300-0114): 8 µM

O=C(Nc1ccccc1)Nc1ccc2c(c1)OC(F)(F)O2
MIC (microbial growth; NCTC8325): > 100 µM

COc1cc(C(=O)O)ccc1NC(=O)c1ccc(NC(=O)c2ccc(NC(=O)[C@H](Cc3c[nH]nn3)NC(=O)c3ccc(NC(=O)/C(C)=C/c4ccc(O)cc4)cc3)cc2)cc1
MIC (broth microdilution; ciprofloxacin-sensitive): 32 µg/mL

CCCCCCCCCC[N+](C)(C)CCCCOc1cc(OCCCC[N+](C)(C)CCCCCCCCCC)cc(OCCCC[N+](C)(C)CCCCCCCCCC)c1.[Br-].[Br-].[Br-]
MIC (SH1000 MSSA): 0.5 µM
